Measured values of several laboratories.
Parts stem from different laboratories: compare values within a part only. Values joined by “and” are separate records of one study, mostly repeats; a detail may differ.

Set 1 — observed: radioligand binding; technique: radioligand displacement; tested at: 10 µM
Target: Translocator protein (Tspo, Rattus norvegicus, UniProt P16257)
Chain of UniProt P16257 (whole entry, looked up): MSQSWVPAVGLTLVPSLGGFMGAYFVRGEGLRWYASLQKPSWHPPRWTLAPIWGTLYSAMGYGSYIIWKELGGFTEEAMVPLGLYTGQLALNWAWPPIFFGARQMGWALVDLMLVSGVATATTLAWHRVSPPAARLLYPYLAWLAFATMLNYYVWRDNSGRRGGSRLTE
SMILES	inhibition [%]
Cc1noc([C@H]2C[C@@H](c3ccc(C(F)(F)F)cc3)CN(C(=O)N3CCS(=O)(=O)C3)C2)n1	7.2
CNC(=N)NCCC[C@H](NC(=O)[C@H](CC(C)C)NC(=O)NNC(=O)[C@H](Cc1ccccc1)NC(=O)[C@H](CO)NC(=O)[C@H](CC(N)=O)NC(=O)[C@@H](Cc1ccncc1)NC(=O)[C@H](N)Cc1ccc(O)cc1)C(=O)N[C@@H](Cc1ccccc1)C(N)=O	31.5
O=C1CCc2cc(Nc3cc(OC4CCOCC4)c([N+](=O)[O-])cc3Cl)ccc2N1	13.4
CN(C)C(=O)Cn1cc(-c2nc([C@@](C)(c3ccc(-c4cnc(N)nc4)cc3)C3CC3)no2)cn1	1.51
NC(=O)c1ccc2nc(-c3ccc(C4(N)CCC4)cc3)c(-c3ccccc3)n2n1	40.5
O=C(NNS(=O)(=O)c1ccccc1F)c1cc(F)cc(-c2ccccn2)c1	47
CC[C@H](CC(=O)O)n1c(=O)c2ncccc2n(Cc2cn(C)c3cc(C)cc(C)c23)c1=O	12.2
COc1cc(N[C@@H]2CCCC[C@]2(O)C(F)(F)F)ccc1F	-1.71
CN1CCN(C(=O)C(C)(C)c2ccc(C(=O)Nc3cn4cc(-c5cc(C(C)(C)C)cc(C(C)(C)C)c5)ccc4n3)cc2)CC1	-6.1
O=C1c2ccc(Nc3ccc(F)cc3F)cc2CCc2ccc(OC[C@H](O)CO)cc21	-20.4
CCCOc1ccc([C@H]2[C@H](C(=O)O)[C@@H](c3ccc4c(c3)OCO4)CN2CC(=O)Nc2c(CC)cccc2CC)cc1	16.5
CS(=O)(=O)c1cc(C2(NC(=O)c3cncc4c3cnn4-c3ccc(F)cc3)CC2)ccn1	17.9
CN1CCN(c2cnc3c(C4CCN(C(=O)c5ccc(OC(F)(F)F)cc5N)CC4)ncnc3c2)CC1	-10.4
CNC(=O)Nc1ccc2c(c1)CC[C@@]21OC(=O)N(CC(=O)N(Cc2ccc(F)cc2)[C@@H](C)C(F)(F)F)C1=O	60
Nc1nc(NCc2ccccc2)nc(-c2cccc(CO)c2)n1	-14.9
CC(=O)N1CCC(c2ccc(C(=O)NC3=NCCN3)cc2C(F)(F)F)CC1	-2.17
N#CC1(c2ccccn2)CCN(Cc2cc(C(=O)N3CCCC3)c(=O)n3ccccc23)CC1	46.5
Cc1nc(C2CCN(C(=O)c3ccc(OC(F)(F)F)cc3N)CC2)c2ncc(N3CCN(C)CC3)cc2n1	-4.32

Set 2 — observed: enzyme activity; action: inhibitor; tested at: 0.5 µM; relative to: control
Target: Ephrin type-A receptor 1 (EPHA1, Homo sapiens, UniProt P21709)
Construct (P21709 1-976): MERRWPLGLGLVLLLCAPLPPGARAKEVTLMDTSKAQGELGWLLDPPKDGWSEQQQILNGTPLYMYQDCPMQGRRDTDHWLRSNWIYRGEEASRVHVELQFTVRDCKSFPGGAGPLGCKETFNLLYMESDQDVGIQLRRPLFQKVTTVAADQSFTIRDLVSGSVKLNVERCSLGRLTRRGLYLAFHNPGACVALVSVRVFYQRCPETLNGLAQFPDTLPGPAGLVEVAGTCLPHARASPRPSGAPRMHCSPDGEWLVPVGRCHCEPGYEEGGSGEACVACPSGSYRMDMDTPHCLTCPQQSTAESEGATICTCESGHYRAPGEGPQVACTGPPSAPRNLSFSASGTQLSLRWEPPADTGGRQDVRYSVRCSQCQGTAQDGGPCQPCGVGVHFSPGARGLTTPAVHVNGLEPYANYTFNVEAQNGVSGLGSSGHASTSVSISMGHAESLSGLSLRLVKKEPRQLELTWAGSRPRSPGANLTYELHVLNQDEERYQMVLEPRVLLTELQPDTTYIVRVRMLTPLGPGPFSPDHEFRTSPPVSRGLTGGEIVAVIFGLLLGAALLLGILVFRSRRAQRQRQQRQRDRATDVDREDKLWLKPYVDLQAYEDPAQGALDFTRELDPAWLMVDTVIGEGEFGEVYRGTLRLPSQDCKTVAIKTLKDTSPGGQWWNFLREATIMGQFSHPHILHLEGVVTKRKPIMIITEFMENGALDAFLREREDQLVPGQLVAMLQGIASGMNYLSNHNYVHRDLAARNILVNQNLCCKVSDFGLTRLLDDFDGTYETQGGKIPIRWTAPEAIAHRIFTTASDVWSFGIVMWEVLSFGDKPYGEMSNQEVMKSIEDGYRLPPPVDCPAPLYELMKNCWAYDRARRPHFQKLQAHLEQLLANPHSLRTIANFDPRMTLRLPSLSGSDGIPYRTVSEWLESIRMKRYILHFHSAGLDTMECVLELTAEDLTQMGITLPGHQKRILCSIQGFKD
SMILES	remaining activity [%]
O=C(Nc1ccc(Cl)cc1)c1ccccc1NCc1ccncc1	97
Cc1ccc(NC(=O)c2ccc(CN3CCN(C)CC3)cc2)cc1Nc1nccc(-c2cccnc2)n1	99.9
COc1ccc(-c2cnc3c(-c4ccsc4)cnn3c2)cc1	91.5
CCC(=O)Nc1ccc2ncnc(Nc3cccc(Br)c3)c2c1	89.5
CCN1/C(=C/C(C)=O)Sc2ccc(OC)cc21	95.8
O=C1NC(=O)/C(=C/c2ccc3nccnc3c2)S1	91.8
CCOc1cc2ncnc(Nc3cccc(Br)c3)c2cc1OCC	84.7
CC(C)c1nn(-c2c(Cl)cccc2Cl)c2nc(Cc3ccc(OCCO)cc3)[nH]c(=O)c12	95
CC(C)[C@H](CO)Nc1nc(Nc2cccc(Cl)c2)c2ncn(C(C)C)c2n1	98.3
C[S+]([O-])c1ccc(-c2nc(-c3ccncc3)c(-c3ccc(F)cc3)[nH]2)cc1 (stereo not drawn)	97
COc1cc2ncc(-c3ccccc3)nc2cc1OC	95.8
COc1cc2ncnc(N3CCN(C(=O)Nc4ccc(Oc5ccccc5)cc4)CC3)c2cc1OC	102
O=c1cc(N2CCOCC2)oc2c1ccc1ccccc12	94.2
Cn1cc(/C=C2\C(=O)Nc3ccc(S(N)(=O)=O)cc32)c2ccccc21	101
Cn1cnc2cc3c(Nc4cccc(Br)c4)ncnc3cc21	84.4
CN(C)CCCn1cc(C2=C(c3c[nH]c4ccccc34)C(=O)NC2=O)c2ccccc21	89.9
COc1ccc(Cl)cc1NC(=O)Nc1cc(C)nc2ccccc12	88.6
COc1cc2ncnc(Nc3ccc(OCc4ccccc4)cc3)c2cc1OC	102
CS(=O)(=O)CCNCc1ccc(-c2ccc3ncnc(Nc4ccc(OCc5cccc(F)c5)c(Cl)c4)c3c2)o1	99.3
CC(=O)O/N=C1/C(c2c(O)[nH]c3cc(Br)ccc23)=Nc2ccccc21	83.2
Nc1[nH]nc2nnc(-c3c(-c4ccccc4)nn4ccccc34)cc12	92.6
Cc1nc(Nc2ncc(C(=O)Nc3c(C)cccc3Cl)s2)cc(N2CCN(CCO)CC2)n1	2.72

Set 3 — cell line: Huh-7; tested at: 10 µM; time: 24 h
Compound	viability
C[C@]12CC[C@@H]3c4ccc(O)cc4CC[C@H]3[C@@H]1C[C@@H](O)[C@@H]2O	98.4%
O=C(CCCN1CC=C(n2c(=O)[nH]c3ccccc32)CC1)c1ccc(F)cc1	93.6%
NC12CC3CC(CC(C3)C1)C2	98.3%
Cc1ccsc1/C=C/C1=NCCCN1C	100%
NC(CO)C(=O)NNCc1ccc(O)c(O)c1O (stereo not drawn)	95.7%
NNCCc1ccccc1	97.3%
CC(C(=O)O)c1cccc(Oc2ccccc2)c1 (stereo not drawn)	102%
O=C(O)CCCC[C@@H]1SC[C@@H]2NC(=O)N[C@@H]21	99.7%
CC(=O)OCC(=O)[C@@]12OC(C)(C)O[C@@H]1C[C@H]1[C@@H]3C[C@H](F)C4=CC(=O)C=C[C@]4(C)[C@@]3(F)[C@@H](O)C[C@@]12C	98.6%
C[C@@H]1O[C@@H](OC[C@H]2O[C@@H](Oc3c(-c4ccc(O)c(O)c4)oc4cc(O)cc(O)c4c3=O)[C@H](O)[C@@H](O)[C@@H]2O)[C@H](O)[C@H](O)[C@H]1O	89.4%

Set 4 — observed: RNA clamping; technique: fluorescence polarization; tested at: concentration not given; with: FAM-labelled poly r(AG)8 RNA
Target: Eukaryotic initiation factor 4A-III (Homo sapiens, UniProt P38919)
Chain of UniProt P38919 (whole entry, looked up): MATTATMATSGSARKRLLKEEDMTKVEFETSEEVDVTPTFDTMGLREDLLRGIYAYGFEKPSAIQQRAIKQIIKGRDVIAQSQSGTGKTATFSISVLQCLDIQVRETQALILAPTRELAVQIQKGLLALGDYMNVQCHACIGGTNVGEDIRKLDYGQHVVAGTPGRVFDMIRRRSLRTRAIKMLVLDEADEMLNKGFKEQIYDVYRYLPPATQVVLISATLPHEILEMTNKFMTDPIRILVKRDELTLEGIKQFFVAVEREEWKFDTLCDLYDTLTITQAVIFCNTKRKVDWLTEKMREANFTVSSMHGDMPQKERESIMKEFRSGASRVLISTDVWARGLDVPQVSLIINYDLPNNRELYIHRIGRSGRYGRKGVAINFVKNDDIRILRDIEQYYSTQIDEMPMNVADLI
Compound	fluorescence polarization change
COC(=O)[C@@H]1[C@@H](c2ccccc2)[C@]2(c3ccc(OC)cc3)Oc3cc(OC)cc(OC)c3[C@@]23NC(Cc2ccccc2)=N[C@@]13O	23.4 mP and 13.6 mP
COC(=O)[C@H]1C(=O)[C@@]2(NC34C[C@H]5C[C@@H](C3)C[C@@H](C4)C5)c3c(OC)cc(OC)cc3O[C@@]2(c2ccc(OC)cc2)[C@@H]1c1ccccc1	-0.9 mP
COC(=O)[C@@H]1[C@@H](c2ccccc2)[C@]2(c3ccc(OC)cc3)Oc3cc(OC)cc(OC)c3[C@@]23NC(C(F)(F)F)=N[C@@]13O	11.2 mP
COC(=O)[C@H]1[C@@H](O)[C@@]2(O)c3c(OC)cccc3N(C)[C@@]2(c2ccc(Br)cc2)[C@@H]1c1ccccc1	-4.7 mP
COC(=O)[C@@H]1[C@@H](c2ccccc2)[C@]2(c3ccc(OC)cc3)Oc3cc(OC)cc(OC)c3[C@@]1(O)C2(O)O	-0.5 mP
COc1ccc([C@@]23Oc4cc(OC)cc(OC)c4[C@]2(O)c2nc(-c4ccccc4)nc(OC)c2[C@H]3c2ccccc2)cc1	4.8 mP
C#CCOc1cc(OC)c2c(c1)O[C@@]1(c3ccc(OC)cc3)[C@H](c3ccccc3)c3c(nc4n(c3=O)CCC4)[C@@]21O	10.5 mP

Excerpt of the above (set 2):
SMILES	remaining activity [%]
CCN1/C(=C/C(C)=O)Sc2ccc(OC)cc21	95.8
CC(C)c1nn(-c2c(Cl)cccc2Cl)c2nc(Cc3ccc(OCCO)cc3)[nH]c(=O)c12	95
O=c1cc(N2CCOCC2)oc2c1ccc1ccccc12	94.2
Cn1cnc2cc3c(Nc4cccc(Br)c4)ncnc3cc21	84.4
CCC(=O)Nc1ccc2ncnc(Nc3cccc(Br)c3)c2c1	89.5
CC(C)[C@H](CO)Nc1nc(Nc2cccc(Cl)c2)c2ncn(C(C)C)c2n1	98.3
